Results collected from several papers.
Compare with care: the assays were run in different laboratories. Numbers after ± are the reported error. Where no end group is shown, it is not given here. Ends that are not written are not given here. [ ]: non-standard residue; d: D form.
ACKR4: ACKR4 (Homo sapiens, UniProt Q9NPB9)
UniProt Q9NPB9, sequence (whole entry, looked up): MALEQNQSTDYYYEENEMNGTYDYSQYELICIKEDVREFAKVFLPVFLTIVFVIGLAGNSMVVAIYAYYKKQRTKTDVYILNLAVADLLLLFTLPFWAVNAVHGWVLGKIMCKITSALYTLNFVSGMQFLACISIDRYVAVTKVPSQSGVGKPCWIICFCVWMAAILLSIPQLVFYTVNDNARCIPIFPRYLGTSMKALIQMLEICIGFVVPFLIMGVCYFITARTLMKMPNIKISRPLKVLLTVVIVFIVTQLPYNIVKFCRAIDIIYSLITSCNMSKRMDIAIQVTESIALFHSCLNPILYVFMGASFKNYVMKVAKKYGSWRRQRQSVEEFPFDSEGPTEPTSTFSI
T1: NR1I2/RXRA (Homo sapiens); chain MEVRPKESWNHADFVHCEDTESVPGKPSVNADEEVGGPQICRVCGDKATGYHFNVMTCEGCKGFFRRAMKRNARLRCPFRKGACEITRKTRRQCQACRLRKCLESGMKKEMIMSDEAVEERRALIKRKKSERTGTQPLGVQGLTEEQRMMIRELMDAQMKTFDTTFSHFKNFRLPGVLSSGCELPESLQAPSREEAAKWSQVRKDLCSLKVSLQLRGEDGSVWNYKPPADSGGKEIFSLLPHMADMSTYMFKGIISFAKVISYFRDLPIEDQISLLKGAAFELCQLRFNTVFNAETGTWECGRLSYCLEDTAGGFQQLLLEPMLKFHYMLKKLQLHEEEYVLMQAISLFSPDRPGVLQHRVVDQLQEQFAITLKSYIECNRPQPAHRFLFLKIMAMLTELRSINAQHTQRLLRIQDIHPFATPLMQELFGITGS; chain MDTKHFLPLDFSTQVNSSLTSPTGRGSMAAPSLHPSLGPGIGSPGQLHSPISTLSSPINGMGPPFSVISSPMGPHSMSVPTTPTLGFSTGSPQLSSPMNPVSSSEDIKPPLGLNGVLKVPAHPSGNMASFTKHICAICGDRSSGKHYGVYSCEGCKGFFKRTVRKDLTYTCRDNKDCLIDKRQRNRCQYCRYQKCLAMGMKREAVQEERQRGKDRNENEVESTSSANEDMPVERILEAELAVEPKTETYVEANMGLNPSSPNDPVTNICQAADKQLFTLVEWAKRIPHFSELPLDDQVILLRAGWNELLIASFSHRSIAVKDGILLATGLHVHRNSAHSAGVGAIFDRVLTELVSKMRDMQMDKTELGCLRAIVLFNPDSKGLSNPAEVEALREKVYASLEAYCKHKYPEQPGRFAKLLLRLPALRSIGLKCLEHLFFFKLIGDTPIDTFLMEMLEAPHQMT
B1: ASB9 35-252 (Homo sapiens, UniProt Q96DX5); sequence looked up; chain SDWSPMHEAAIHGHQLSLRNLISQGWAVNIITADHVSPLHEACLGGHLSCVKILLKHGAQVNGVTADWHTPLFNACVSGSWDCVNLLLQHGASVQPESDLASPIHEAARRGHVECVNSLIAYGGNIDHKISHLGTPLYLACENQQRACVKKLLESGADVNQGKGQDSPLHAVARTASEELACLLMDFGADTQAKNAEGKRPVELVPPESPLAQLFLER
B2: CCL21 mature, 1-111 (Homo sapiens, UniProt O00585); sequence looked up; chain SDGGAQDCCLKYSQRKIPAKVVRSYRKQEPSLGCSIPAILFLPRKRSQAELCADPKELWVQQLMQHLDKTPSPQKPAQGCRKDRGASKTGKKGKGSKGCKRTERSQTPKGP
B3: RAG2 (Homo sapiens, UniProt P55895); chain MSLQMVTVSNNIALIQPGFSLMNFDGQVFFFGQKGWPKRSCPTGVFHLDVKHNHVKLKPTIFSKDSCYLPPLRYPATCTFKGSLESEKHQYIIHGGKTPNNEVSDKIYVMSIVCKNNKKVTFRCTEKDLVGDVPEARYGHSINVVYSRGKSMGVLFGGRSYMPSTHRTTEKWNSVADCLPCVFLVDFEFGCATSYILPELQDGLSFHVSIAKNDTIYILGGHSLANNIRPANLYRIRVDLPLGSPAVNCTVLPGGISVSSAILTQTNNDEFVIVGGYQLENQKRMICNIISLEDNKIEIREMETPDWTPDIKHSKIWFGSNMGNGTVFLGIPGDNKQVVSEGFYFYMLKCAEDDTNEEQTTFTNSQTSTEDPGDSTPFEDSEEFCFSAEANSFDGDDEFDTYNEDDEEDESETGYWITCCPTCDVDINTWVPFYSTELNKPAMIYCSHGDGHWVHAQCMDLAERTLIHLSAGSNKYYCNEHVEIARALHTPQRVLPLKKPPMKSLRKKGSGKILTPAKKSFLRRLFD
UniProt P14480, sequence (whole entry, looked up): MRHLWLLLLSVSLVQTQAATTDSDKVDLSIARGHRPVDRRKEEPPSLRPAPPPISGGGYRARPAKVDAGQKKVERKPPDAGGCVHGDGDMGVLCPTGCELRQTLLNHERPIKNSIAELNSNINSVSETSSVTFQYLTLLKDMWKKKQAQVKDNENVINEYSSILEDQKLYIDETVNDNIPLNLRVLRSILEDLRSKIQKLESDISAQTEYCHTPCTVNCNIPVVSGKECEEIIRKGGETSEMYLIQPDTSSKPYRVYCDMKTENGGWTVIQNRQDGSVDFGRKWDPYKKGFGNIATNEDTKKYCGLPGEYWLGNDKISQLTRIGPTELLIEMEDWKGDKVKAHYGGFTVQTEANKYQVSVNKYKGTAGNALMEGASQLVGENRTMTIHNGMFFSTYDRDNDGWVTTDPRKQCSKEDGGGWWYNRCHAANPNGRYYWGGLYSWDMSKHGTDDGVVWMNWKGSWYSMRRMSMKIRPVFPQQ
UniProt P12277, sequence (whole entry, looked up): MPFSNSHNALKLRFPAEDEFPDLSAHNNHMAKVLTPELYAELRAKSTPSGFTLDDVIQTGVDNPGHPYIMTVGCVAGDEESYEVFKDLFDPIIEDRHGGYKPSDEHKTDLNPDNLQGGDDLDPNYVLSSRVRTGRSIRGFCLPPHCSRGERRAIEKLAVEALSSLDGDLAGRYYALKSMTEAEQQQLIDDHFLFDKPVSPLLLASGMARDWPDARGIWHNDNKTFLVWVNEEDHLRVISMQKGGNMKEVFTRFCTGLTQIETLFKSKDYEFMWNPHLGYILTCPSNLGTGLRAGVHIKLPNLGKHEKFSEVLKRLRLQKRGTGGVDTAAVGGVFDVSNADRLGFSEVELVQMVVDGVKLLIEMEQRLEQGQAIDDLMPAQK
UniProt P04180, sequence (whole entry, looked up): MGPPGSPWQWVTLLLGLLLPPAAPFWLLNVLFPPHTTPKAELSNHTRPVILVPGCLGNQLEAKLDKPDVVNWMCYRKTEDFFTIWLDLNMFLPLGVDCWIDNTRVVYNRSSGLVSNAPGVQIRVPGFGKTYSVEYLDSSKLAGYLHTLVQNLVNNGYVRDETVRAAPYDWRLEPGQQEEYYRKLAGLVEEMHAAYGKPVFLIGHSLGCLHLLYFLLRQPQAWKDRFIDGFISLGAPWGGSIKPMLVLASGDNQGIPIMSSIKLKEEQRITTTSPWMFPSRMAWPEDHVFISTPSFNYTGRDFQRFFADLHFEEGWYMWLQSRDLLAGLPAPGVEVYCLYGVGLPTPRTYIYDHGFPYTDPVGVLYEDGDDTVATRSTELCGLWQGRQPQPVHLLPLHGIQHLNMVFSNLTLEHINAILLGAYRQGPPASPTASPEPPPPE
UniProt Q99731, sequence (whole entry, looked up): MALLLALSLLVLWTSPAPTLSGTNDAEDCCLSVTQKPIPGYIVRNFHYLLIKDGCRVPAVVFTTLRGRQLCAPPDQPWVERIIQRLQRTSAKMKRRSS
UniProt Q00987, sequence (whole entry, looked up): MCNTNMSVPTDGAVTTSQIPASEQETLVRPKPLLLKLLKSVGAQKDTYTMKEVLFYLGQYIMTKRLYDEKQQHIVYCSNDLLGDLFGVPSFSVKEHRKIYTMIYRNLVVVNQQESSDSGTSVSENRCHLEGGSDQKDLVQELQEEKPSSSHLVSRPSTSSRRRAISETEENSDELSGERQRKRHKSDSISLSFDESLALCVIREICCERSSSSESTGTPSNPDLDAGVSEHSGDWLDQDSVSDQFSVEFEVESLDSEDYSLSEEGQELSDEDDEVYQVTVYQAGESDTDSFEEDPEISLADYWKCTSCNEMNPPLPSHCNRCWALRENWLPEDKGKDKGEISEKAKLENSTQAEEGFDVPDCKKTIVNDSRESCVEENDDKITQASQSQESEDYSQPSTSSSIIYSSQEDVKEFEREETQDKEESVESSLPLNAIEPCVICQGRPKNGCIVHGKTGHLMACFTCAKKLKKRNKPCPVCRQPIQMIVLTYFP
UniProt Q12888, sequence (whole entry, looked up): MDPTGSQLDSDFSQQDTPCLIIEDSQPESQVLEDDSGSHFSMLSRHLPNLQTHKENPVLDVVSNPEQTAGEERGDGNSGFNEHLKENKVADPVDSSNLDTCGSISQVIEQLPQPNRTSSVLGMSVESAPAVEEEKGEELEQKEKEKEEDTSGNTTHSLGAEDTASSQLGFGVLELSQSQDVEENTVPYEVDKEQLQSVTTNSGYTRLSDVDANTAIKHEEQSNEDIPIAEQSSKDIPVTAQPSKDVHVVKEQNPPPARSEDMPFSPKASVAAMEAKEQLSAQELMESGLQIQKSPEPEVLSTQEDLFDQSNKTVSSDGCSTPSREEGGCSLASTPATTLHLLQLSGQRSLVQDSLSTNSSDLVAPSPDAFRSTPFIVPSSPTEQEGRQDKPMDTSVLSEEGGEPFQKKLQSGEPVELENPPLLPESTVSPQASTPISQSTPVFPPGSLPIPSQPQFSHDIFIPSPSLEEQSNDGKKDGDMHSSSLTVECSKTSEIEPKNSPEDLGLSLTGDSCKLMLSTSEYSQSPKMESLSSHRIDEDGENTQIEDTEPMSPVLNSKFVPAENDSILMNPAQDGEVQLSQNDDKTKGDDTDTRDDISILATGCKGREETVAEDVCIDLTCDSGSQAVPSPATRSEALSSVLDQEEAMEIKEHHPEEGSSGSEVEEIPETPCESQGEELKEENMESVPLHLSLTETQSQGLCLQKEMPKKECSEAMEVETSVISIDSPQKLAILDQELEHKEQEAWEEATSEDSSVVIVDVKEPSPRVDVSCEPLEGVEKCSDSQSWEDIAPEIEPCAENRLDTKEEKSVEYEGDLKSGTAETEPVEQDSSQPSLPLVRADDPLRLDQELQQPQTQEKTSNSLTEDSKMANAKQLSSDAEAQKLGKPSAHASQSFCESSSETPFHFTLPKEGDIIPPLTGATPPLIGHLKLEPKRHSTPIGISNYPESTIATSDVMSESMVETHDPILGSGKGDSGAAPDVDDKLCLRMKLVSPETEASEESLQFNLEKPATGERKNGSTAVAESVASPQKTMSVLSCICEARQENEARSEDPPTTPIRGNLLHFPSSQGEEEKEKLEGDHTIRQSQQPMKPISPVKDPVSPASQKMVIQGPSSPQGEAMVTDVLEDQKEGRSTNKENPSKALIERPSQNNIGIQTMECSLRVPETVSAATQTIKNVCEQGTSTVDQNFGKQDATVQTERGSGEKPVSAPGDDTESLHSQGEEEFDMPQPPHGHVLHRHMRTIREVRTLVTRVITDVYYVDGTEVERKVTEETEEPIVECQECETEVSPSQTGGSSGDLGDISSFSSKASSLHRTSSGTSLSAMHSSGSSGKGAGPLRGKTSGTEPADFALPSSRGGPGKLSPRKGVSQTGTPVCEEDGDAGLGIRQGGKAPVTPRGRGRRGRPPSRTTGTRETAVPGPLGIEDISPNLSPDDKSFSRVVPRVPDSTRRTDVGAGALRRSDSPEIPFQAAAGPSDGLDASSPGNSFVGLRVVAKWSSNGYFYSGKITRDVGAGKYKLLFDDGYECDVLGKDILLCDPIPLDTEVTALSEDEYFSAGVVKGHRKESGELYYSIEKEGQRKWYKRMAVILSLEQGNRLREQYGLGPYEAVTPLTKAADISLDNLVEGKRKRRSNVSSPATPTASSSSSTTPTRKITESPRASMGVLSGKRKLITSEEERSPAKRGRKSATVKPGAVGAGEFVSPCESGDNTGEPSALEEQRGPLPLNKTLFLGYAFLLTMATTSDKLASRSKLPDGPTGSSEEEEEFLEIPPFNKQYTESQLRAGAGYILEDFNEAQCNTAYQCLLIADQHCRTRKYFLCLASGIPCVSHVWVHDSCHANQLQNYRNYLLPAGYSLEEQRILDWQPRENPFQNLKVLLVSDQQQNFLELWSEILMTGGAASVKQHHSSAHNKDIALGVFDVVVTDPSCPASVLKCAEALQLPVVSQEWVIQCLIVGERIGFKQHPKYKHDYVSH
UniProt P02680, sequence (whole entry, looked up): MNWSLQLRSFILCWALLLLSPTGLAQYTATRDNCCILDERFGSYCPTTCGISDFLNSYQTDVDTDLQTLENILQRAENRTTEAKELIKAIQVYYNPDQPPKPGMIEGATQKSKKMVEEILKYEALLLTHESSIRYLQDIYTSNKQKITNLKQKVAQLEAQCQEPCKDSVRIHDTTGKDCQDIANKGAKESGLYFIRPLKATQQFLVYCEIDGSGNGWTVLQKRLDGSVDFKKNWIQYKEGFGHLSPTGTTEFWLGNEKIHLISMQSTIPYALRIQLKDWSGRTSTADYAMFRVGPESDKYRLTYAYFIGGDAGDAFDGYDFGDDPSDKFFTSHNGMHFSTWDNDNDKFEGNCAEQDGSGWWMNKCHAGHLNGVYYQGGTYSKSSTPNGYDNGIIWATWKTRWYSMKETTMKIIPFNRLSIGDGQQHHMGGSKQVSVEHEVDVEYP

Molecule | tested on | assay | system | conditions | scale | quantity | result
B1 (ASB9 35-252) | CKB 1-381 (UniProt P12277) | SPR | – | pH 8.0, NaCl 200 mM, Langmuir model | – | koff | 0.0035 s⁻¹
Insulin human | – | – | rat, thalamus/hypothalamus | intranasal, 20 µg per nostril, 15 min | – | brain concentration | 92.7 ± 29 pg/mg tissue
ATGGVKKPHR (dimethyl-Lys36) | TP53-binding protein 1, tandem tudor domain (Homo sapiens, UniProt Q12888) | tryptophan fluorescence | – | tandem Tudor domain | – | Kd | 1500 nM
V[dF]IA (D-Phe2) | PC-12 | protection from Aβ1–42 toxicity, MTT | – | concentration not given, 6 h, Aβ to peptide ratio 1:10, added: Aβ1–42 2 µM | relative to: untreated cells | cell viability | 70%
B2 (CCL21 mature, 1-111) | ACKR4 | β-arrestin recruitment, agonist, NanoLuc complementation | – | – | – | EC50 | 22 nM
B3 (RAG2) | RAG1 (Homo sapiens, UniProt P15918) | live-cell microscopy | 293T-CJ | – | higher = more cells with puncta | cells with puncta | 13%
QKRAA (also: backbone cyclization with non-peptidic ring/spacer; cyclic) | Calreticulin (Calr, Mus musculus, UniProt P14211) | binding, surface plasmon resonance | – | pH 7.4, 25 °C | – | Kd | 510 ± 2e-06 nM
CCL19 (UniProt Q99731) | ACKR4 | β-arrestin2 recruitment, agonist, EFC | CHO-CCX-CKR | vehicle | – | pEC50 | 8.6
Itgam/Itgb2 Mac-1 (Mus musculus) | LL-37 (Homo sapiens) | phagocytosis of latex beads | IC-21 macrophages | – | relative to: untreated beads, higher = more phagocytosis | phagocytosis | 3.5 fold
DGWSHW (THBS1 residues 436-441 G436D (Homo sapiens)) | FN1 intact plasma (Homo sapiens) | competition with coated peptide, radioligand binding | peptide | – | – | IC50 | > 300000 nM
MGRRFLVTVRIQRAGRPLQERVFLVKFVRSRRPRTAS (mouse p19Arf residues 1–37; sequence looked up) | E3 ubiquitin-protein ligase Mdm2, p53-binding domain (MDM2, Homo sapiens, UniProt Q00987) | circular dichroism | peptide | – | – | Kd | ≤ 10000 nM
TCAGCTGAATGAACTTGCTGACCC (dsDNA) | T1, NR1I2/RXRA (Homo sapiens) | fluorescence anisotropy competition | double-stranded DNA, one strand shown | added: DR3 FAM | – | Ki | 95.6 ± 4.7 nM
[dL]VIA (D-Leu1) | PC-12 | protection from Aβ1–42 toxicity, MTT | – | concentration not given, 6 h, Aβ to peptide ratio 1:10, added: Aβ1–42 2 µM | relative to: untreated cells | cell viability | 70.6%
human LCAT | Phosphatidylcholine-sterol acyltransferase (Homo sapiens, UniProt P04180) | enzyme | human plasma | 10 µg/mL, added: HDL-mimetic substrate | – | specific activity | 7 nmol/µg/h
UGT1A9 (Homo sapiens, UniProt O60656) | Cc1cc(=O)oc2cc(O)ccc12 | steady-state kinetics | – | pH 7.4, 37 °C | – | Vmax/Km | 304 µL/min/mg
alteplase | Fgg/Fga/Fgb, fibrin form (Rattus norvegicus, UniProt P02680+P06399+P14480) | PET-CT | rat embolic stroke thrombosis model, ICA-MCA | intravenous, 10 mg/kg, added: tracer FBP7 | – | ipsilateral to contralateral activity ratio | 1.08 ± 0.11
PPP1CB (Homo sapiens, UniProt P62140) | SHOC2 (Homo sapiens, UniProt Q9UQ13) | BLI | – | pH 7.5, 30 °C | – | koff | 0.0075 s⁻¹

Some of these lines once more:
Molecule | tested on | assay | system | conditions | scale | quantity | result
Insulin human | – | – | rat, thalamus/hypothalamus | intranasal, 20 µg per nostril, 15 min | – | brain concentration | 92.7 ± 29 pg/mg tissue
[dL]VIA (D-Leu1) | PC-12 | protection from Aβ1–42 toxicity, MTT | – | concentration not given, 6 h, Aβ to peptide ratio 1:10, added: Aβ1–42 2 µM | relative to: untreated cells | cell viability | 70.6%
